Measurements gathered from unrelated publications.
Protocols differ between the studies behind these lines. ± marks the error that the study gave.
Target: Cytochrome P450 3A4 (CYP3A4, Homo sapiens, UniProt P08684)
Chain of UniProt P08684 (whole entry, looked up): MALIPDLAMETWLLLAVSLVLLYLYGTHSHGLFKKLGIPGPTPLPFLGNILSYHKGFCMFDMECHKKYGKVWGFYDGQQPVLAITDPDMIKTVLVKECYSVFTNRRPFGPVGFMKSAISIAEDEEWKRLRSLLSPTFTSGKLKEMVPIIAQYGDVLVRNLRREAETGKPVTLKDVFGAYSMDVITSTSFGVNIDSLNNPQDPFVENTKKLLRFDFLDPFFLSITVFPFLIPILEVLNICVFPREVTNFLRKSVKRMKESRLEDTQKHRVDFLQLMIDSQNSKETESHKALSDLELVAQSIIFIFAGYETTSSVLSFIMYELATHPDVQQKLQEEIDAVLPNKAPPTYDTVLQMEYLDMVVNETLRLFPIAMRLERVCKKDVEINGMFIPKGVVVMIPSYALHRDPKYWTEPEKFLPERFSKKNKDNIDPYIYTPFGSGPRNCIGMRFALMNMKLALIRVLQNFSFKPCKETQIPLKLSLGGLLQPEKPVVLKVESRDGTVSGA

CC(O)C(C)n1ncn(-c2ccc(N3CCN(c4ccc(OCC5COC(Cn6cncn6)(c6ccc(Cl)cc6Cl)O5)cc4)CC3)cc2)c1=O (centres unmarked) has an IC50 of 0.002 µM (inhibitor; human liver microsomes; with: testosterone).
The IC50 of COc1cc2c(c(OC)c1OC)-c1c(cc3c(c1OC)OCO3)C[C@H](C)[C@](C)(O)[C@H]2OC(=O)c1ccccc1 is reported as 0.13 ± 0.04 µM (testosterone 6β-hydroxylation, inhibitor, recombinant enzyme; 15 min, pH 7.4, with: testosterone 50 µM).
CCOc1cc(-c2nncn2C)ccc1Nc1ncc2cc(C)nc(NCC(C)(C)C)c2n1 gave an IC50 of greater than 50 µM (inhibitor; human liver microsomes; with: midazolam substrate).
With Cc1cc(O[C@@H]2CCOC2)cc(C(=O)Nc2ccc(F)cn2)n1 the IC50 was greater than 30 µM (inhibitor).
The IC50 of O=C(O)/C=C/c1ccccc1 is reported as greater than 337 µM (enzyme activity, inhibitor).
The Ki of C=C(F)C(=O)N1CCN(c2nc(OC[C@@H]3CCCN3C)nc3c2CCN(c2cccc4cccc(Cl)c24)C3)C[C@@H]1CC#N is reported as 8.2 µM (enzyme activity, competitive inhibitor; human liver microsomes).
OCc1ccc(-c2nn(Cc3ccccc3)c3ccccc23)o1 has an IC50 of 6.8 µM (enzyme activity, time-dependent inhibitor; pooled human liver microsomes; 30 min, preincubation with NADH, with: testosterone).
With COc1cc2c(c(OC)c1OC)-c1c(cc3c(c1OC)OCO3)[C@H](OC(=O)c1ccccc1)[C@@](C)(O)[C@@H](C)C2 the IC50 was 0.096 ± 0.02 µM (testosterone 6β-hydroxylation, inhibitor, recombinant enzyme; 15 min, pH 7.4, with: testosterone 50 µM).
O=C(NCCN1CCCC1)c1cc(-c2ccc(CN3CCOCC3)cc2)nc2ccc(F)cc12 gave an IC50 of greater than 100 µM (inhibitor; pooled human liver microsomes; metabolism-dependent inhibition, with: midazolam).
CCOC(=O)[C@@]12C[C@@H]1[C@@H](n1ccc3c(NC)nc(C#Cc4ccc(Cl)s4)nc31)[C@H](O)[C@@H]2O has an IC50 of 10.7 µM (enzyme activity, inhibitor; human liver microsomes; 10 min, pH 7.4, with: midazolam).
With Cc1cccnc1C(=O)Nc1ccc(N2C(=O)c3cccc(Cl)c3C2=O)c(Cl)c1 the IC50 was greater than 30 µM (enzyme activity, inhibitor; 3A4).

A few entries again:
CC(O)C(C)n1ncn(-c2ccc(N3CCN(c4ccc(OCC5COC(Cn6cncn6)(c6ccc(Cl)cc6Cl)O5)cc4)CC3)cc2)c1=O (centres unmarked) has an IC50 of 0.002 µM (inhibitor; human liver microsomes; with: testosterone).
The IC50 of COc1cc2c(c(OC)c1OC)-c1c(cc3c(c1OC)OCO3)C[C@H](C)[C@](C)(O)[C@H]2OC(=O)c1ccccc1 is reported as 0.13 ± 0.04 µM (testosterone 6β-hydroxylation, inhibitor, recombinant enzyme; 15 min, pH 7.4, with: testosterone 50 µM).
